{"data": "Experimental data pooled from the literature", "note": "Each line is one published result; not all experiments were run side by side. “And” joins repeats or separate records; there may be more than shown. ± gives the spread as reported.", "chain of UniProt Q9UM07 (whole entry, looked up)": "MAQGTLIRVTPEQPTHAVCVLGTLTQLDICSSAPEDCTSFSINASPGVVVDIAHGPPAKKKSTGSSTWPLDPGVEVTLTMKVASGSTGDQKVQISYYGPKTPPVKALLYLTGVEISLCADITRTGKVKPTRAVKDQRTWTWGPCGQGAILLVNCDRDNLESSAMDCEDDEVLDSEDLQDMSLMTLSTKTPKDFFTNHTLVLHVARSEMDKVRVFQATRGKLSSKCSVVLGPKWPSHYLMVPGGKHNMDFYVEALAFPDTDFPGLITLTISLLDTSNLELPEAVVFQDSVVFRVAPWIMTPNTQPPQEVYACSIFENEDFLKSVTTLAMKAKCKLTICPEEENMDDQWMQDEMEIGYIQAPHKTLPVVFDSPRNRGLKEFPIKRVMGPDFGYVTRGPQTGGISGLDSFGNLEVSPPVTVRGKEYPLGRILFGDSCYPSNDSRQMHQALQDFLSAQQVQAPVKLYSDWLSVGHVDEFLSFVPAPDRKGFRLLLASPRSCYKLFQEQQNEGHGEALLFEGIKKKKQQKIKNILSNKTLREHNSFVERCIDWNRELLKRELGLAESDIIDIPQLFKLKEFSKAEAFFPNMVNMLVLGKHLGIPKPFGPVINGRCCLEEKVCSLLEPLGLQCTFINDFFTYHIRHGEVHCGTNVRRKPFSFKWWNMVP", "chain of UniProt Q8VEB4 (whole entry, looked up)": "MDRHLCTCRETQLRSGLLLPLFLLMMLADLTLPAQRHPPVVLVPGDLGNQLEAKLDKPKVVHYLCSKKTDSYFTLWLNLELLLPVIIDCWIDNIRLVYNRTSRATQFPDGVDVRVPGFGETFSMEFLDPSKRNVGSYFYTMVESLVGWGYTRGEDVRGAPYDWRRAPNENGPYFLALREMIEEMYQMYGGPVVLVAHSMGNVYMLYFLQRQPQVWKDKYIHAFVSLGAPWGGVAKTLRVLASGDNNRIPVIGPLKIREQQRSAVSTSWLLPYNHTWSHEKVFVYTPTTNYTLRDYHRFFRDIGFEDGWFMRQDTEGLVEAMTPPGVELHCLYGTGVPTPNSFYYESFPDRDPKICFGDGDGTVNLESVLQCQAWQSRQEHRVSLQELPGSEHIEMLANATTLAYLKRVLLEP", "chain of UniProt O96017 (whole entry, looked up)": "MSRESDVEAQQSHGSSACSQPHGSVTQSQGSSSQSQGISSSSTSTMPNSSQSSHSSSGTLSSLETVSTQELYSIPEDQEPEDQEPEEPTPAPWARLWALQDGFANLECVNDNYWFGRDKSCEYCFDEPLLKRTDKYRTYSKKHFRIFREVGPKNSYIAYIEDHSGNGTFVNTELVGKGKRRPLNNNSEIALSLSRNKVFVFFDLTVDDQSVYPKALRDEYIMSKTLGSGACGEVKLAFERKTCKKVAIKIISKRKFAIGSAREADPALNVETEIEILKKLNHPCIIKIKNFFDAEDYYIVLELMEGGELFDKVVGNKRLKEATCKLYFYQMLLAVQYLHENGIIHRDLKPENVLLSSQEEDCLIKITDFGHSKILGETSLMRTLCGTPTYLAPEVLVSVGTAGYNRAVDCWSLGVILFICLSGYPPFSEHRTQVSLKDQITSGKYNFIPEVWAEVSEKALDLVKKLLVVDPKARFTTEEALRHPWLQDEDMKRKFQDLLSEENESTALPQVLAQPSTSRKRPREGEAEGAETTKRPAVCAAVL", "chain of UniProt O00506 (whole entry, looked up)": "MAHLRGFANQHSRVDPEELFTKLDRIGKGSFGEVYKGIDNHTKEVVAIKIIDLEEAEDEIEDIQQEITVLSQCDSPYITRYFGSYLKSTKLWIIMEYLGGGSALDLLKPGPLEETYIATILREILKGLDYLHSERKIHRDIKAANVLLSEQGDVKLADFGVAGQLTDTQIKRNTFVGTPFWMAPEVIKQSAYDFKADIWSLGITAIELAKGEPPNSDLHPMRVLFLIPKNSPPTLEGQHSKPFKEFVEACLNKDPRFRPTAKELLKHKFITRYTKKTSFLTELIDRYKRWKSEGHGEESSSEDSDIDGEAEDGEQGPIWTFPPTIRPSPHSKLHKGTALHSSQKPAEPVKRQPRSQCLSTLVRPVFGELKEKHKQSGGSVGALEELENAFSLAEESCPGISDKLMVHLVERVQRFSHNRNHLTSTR", "chain of UniProt Q9BVS4 (whole entry, looked up)": "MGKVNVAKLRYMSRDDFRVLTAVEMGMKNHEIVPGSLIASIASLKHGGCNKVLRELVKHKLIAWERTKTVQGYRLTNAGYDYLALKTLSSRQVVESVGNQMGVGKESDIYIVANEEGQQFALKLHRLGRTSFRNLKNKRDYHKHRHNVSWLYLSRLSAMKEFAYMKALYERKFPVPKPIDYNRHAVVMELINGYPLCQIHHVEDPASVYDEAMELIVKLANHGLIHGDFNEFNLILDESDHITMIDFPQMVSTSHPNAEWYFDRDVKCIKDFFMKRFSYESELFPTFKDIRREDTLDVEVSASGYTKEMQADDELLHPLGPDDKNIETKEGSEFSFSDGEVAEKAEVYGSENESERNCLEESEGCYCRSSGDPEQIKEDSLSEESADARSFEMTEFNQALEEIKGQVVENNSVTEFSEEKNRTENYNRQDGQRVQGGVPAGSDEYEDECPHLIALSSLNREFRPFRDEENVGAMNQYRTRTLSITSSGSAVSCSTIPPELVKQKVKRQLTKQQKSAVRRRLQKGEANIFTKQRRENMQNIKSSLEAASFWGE"}
{"Compound": "CN(C)[C@H]1C[C@@]23CC[C@@]4(O2)C(=CC[C@]2(C)[C@@H](c5ccc6ccncc6c5)CC[C@H]24)C=C3[C@@H](O)[C@@H]1O", "target or system": "Serine/threonine-protein kinase Chk2 (CHEK2, Homo sapiens, UniProt O96017)", "assay": "ATP probe labelling, inhibitor, KiNativ profiling", "conditions": "1 µM", "endpoint": "inhibition", "result": "-2.5%"}
{"Compound": "CC(C)[C@H]1NC(=O)C[C@H]2/C=C/CCSSC[C@@H](NC1=O)C(=O)N[C@H](Cc1cccc3ccccc13)C(=O)NCC(=O)O2", "target or system": "Epidermal growth factor receptor (EGFR, Homo sapiens, UniProt P00533, L858R)", "assay": "enzyme activity, inhibitor", "conditions": "10 µM", "endpoint": "inhibition", "result": "-3.5%"}
{"Compound": "O=C1NC2(CC2)COc2ncc(F)cc2[C@H]2COCCN2c2ccn3ncc1c3n2", "test system": "Sprague-Dawley rat, male, heart", "conditions": "oral, 5 mg/kg/day, 4 weeks dosing, end of recovery", "endpoint": "organ-to-brain weight ratio", "result": "70 ± 3.9%"}
{"Compound": "COc1ccccc1-c1n[nH]c2nc(NC3CCN(C(=O)Cc4ccc(F)cc4F)CC3)ncc12", "assay": "bead binding, competition bead pull-down, item: LINJ.36.2130", "test system": "Leishmania donovani axenic amastigote extract", "conditions": "10 µM", "how to read": "reference: vehicle", "endpoint": "relative abundance", "result": 1.06}
{"Compound": "CC[C@H](C)[C@@H]([C@@H](CC(=O)N1CCC[C@H]1[C@H](OC)[C@@H](C)C(=O)N[C@H](C)[C@@H](O)c1ccccc1)OC)N(C)C(=O)[C@@H](NC(=O)[C@H](C(C)C)N(C)C(=O)OCc1ccc(NC(=O)[C@H](CCCNC(N)=O)NC(=O)[C@@H](NC(=O)CCCCCN2C(=O)CC(SC[C@H](NC(=O)[C@H](CC(=O)O)NC(=O)[C@H](Cc3ccc(O)cc3)NC(=O)[C@H](Cc3c[nH]c4ccccc34)NC(=O)[C@@H](N)CCCNC(=N)N)C(=O)O)C2=O)C(C)C)cc1)C(C)C (stereo partly drawn)", "test system": "C57BL/6 mouse, healthy, heart", "conditions": "intraperitoneal, 2.5 mg/kg, 1 h", "endpoint": "concentration", "result": "not detected"}
{"Compound": "Nc1ccc(/C=C/C(=O)N2CCc3c(oc4c(-c5ccc(F)cc5)cc(-c5ccc(C(=O)N6CCC(F)(F)CC6)cn5)cc34)C2)cn1", "target or system": "Serine/threonine-protein kinase RIO2 (RIOK2, Homo sapiens, UniProt Q9BVS4)", "assay": "binding, competition with immobilised ligand", "conditions": "1 µM", "endpoint": "remaining binding", "result": "93%"}
{"Compound": "Cc1sc2c(c1C)C(c1ccc(Cl)cc1)=N[C@@H](CC(=O)OC(C)(C)C)c1nnc(C)n1-2", "target or system": "Bromodomain testis-specific protein, BD1 (BRDT, Homo sapiens, UniProt Q58F21)", "assay": "isothermal titration calorimetry", "conditions": "15 °C, reverse titration", "endpoint": "observed ΔH", "result": "-8.3 ± 0.024 kcal/mol"}
{"Compound": "CS(C)(=O)=Nc1ccc(-c2ccc(-c3nc4cc(O[C@@H]5CO[C@H]6[C@@H]5OC[C@H]6O)[nH]c4cc3F)cc2)cc1", "target or system": "Serine/threonine-protein kinase 25 (STK25, Homo sapiens, UniProt O00506)", "assay": "enzyme activity, inhibitor", "conditions": "10 µM", "endpoint": "inhibition", "result": "5%"}
{"Compound": "N[C@H](C(=O)N1CCCC1)C1CCN(c2nccc3c(-c4ncc(Cl)cc4Cl)cccc23)CC1", "target or system": "Protein-arginine deiminase type-4 (PADI4, Homo sapiens, UniProt Q9UM07)", "assay": "enzyme activity", "conditions": "0.01573 µM, with: Ca2+ 0.25 mM", "endpoint": "kcat", "result": "0.614 s⁻¹ and 0.636 s⁻¹"}
{"Compound": "O=C1NC(=O)c2c1c1cc(F)c[n+]3c1c1c2c2cc(O)ccc2[n]1[Ru-4]312([N]=C=S)[S+]3CC[S+]1CC[S+]2CC3 (stereo not drawn)", "target or system": "Tyrosine-protein kinase ABL1 (ABL1, Homo sapiens, UniProt P00519, T315I)", "assay": "enzyme activity", "conditions": "100 nM, human enzyme, with: 10 µM ATP", "how to read": "reference: untreated", "endpoint": "remaining activity", "result": "103%"}
{"Compound": "CC(C)CC(O)(CC(C)C)c1cn(C(=O)N2CCCC2)nn1", "target or system": "Lysosomal phospholipase A and acyltransferase (Pla2g15, Mus musculus, UniProt Q8VEB4)", "assay": "probe labelling, inhibitor, item: Lypla3", "test system": "mouse, brain", "conditions": "i.p., 0.8 mg/kg, 4 h, protein level", "how to read": "reference: treated over vehicle mice, lower = stronger inhibition", "endpoint": "activity ratio-of-ratios", "result": 1.92}
{"Compound": "N=C(N)NCCC[C@@H]1NC(=O)[C@H](CCCCNC(=O)CCC(NC(=S)Nc2ccc(CC3CN(CC(=O)O)CCN(CC(=O)O)CCN(CC(=O)O)CCN3CC(=O)O)cc2)C(=O)NCCCC[C@@H]2NC(=O)[C@@H](Cc3ccc(O)cc3)NC(=O)[C@H](CC(=O)O)NC(=O)CNC(=O)[C@H](CCCNC(=N)N)NC2=O)NC(=O)[C@@H](Cc2ccc(O)cc2)NC(=O)[C@H](CC(=O)O)NC(=O)CNC1=O (stereo partly drawn) [scandium-44 labelled]", "assay": "PET imaging ROI", "test system": "female athymic nude mice, U-87 MG xenograft, muscle", "conditions": "intravenous, 0.5 h, with: cRGD 50 mg/kg blocking", "endpoint": "tissue uptake", "result": "0.41 ± 0.12 %ID/g"}
{"note": "Some of these lines once more:"}
{"Compound": "CC(C)[C@H]1NC(=O)C[C@H]2/C=C/CCSSC[C@@H](NC1=O)C(=O)N[C@H](Cc1cccc3ccccc13)C(=O)NCC(=O)O2", "target or system": "Epidermal growth factor receptor (EGFR, Homo sapiens, UniProt P00533, L858R)", "assay": "enzyme activity, inhibitor", "conditions": "10 µM", "endpoint": "inhibition", "result": "-3.5%"}
